Assay results gathered from unrelated publications.
Lines come from different studies, so protocols differ. “And” joins repeats or separate records; there may be more than shown. ± marks the error that the study gave.
rep main protease: Replicase polyprotein 1ab, main protease (rep, Severe acute respiratory syndrome coronavirus 2, UniProt P0DTD1)
Sequence of UniProt P08684 (whole entry, looked up): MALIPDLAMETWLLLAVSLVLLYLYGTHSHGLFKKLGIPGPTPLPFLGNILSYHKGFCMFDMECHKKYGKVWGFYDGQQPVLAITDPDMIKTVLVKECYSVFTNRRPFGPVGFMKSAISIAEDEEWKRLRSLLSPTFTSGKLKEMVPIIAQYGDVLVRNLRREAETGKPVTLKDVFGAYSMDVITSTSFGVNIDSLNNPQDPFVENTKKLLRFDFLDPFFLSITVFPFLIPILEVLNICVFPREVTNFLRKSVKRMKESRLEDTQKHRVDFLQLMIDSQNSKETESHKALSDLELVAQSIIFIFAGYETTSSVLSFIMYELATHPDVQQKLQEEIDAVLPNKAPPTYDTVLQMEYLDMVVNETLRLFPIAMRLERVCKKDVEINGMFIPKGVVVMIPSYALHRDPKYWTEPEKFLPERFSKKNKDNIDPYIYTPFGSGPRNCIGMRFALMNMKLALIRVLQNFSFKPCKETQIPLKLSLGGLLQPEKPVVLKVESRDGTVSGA

`Cn1cnc(Cn2c(=O)[nH]/c(=N\c3cc4cn(C)nc4cc3Cl)n(Cc3cc(F)c(F)cc3F)c2=O)n1` has an IC50 of > 100 µM (Cytochrome P450 3A4 (CYP3A4, Homo sapiens, UniProt P08684); inhibitor; human liver microsomes; 0 min preincubation, together with: testosterone 60 µM).
The inhibition of `Nc1ncnc2c([C@@H]3N[C@H](CO)[C@@H](O)[C@H]3O)c[nH]c12` is reported as 0% (Zaire ebolavirus; viral replication; HeLa, Kikwit; 0.8 µM).
`O=C(NC[C@H]1CN(C(=O)c2cc(O)ccc2F)CC[C@@]12CCOC2)c1ccc2n[nH]nc2c1` has an inhibition of 14.7% (rep main protease; enzyme activity, inhibitor; 5 µM, mean of runs).
With `CCCC(C)NC(=O)c1ccc(Cl)c(Cl)c1` (stereo not drawn) the inhibition was 3.75% (rep main protease; viral replication, Gluc reporter; SARS-CoV-2; 20 µM).
With `CCN(CC)c1nc(C)cc(OP(=S)(OC)OC)n1` the remaining activity was 112% (uncharacterized protein (Anopheles coluzzii, UniProt A0A6E8VQK1); enzyme activity, inhibitor; Sf9 cell homogenate; 4.587 µM, 0.1667 h, together with: α-naphthyl acetate substrate; reference: no inhibitor).
The kcat of `Nc1ncnc2c1ncn2[C@H]1C[C@H](O)[C@@H](COP(=O)(O)OP(=O)(O)OP(=O)(O)O)O1` is reported as 0.237 ± 0.0202 s⁻¹ (Gag-Pol polyprotein, reverse transcriptase (gag-pol, Human immunodeficiency virus type 1 group M subtype B, UniProt P04585, K653R); substrate; K66R mutant, together with: matched T:A primer template).
`CC[C@H](C)[C@H](NC(=O)[C@H](CC(C)C)NC(=O)[C@H](Cc1c[nH]c2ccccc12)NC(=O)[C@H](CCC(N)=O)NC(=O)[C@@H](NC(=O)[C@H](Cc1ccccc1)NC(=O)[C@H](C)NC(=O)[C@H](CCCCNC(=O)COCCOCCNC(=O)COCCOCCNC(=O)CC[C@H](NC(=O)CCCCCCCCCCCCCCCCCCC(=O)O)C(=O)O)NC(=O)[C@H](CCC(N)=O)NC(=O)[C@H](C)NC(=O)[C@@H](NC(=O)[C@H](CCCCN)NC(=O)[C@H](CC(=O)O)NC(=O)[C@H](CC(C)C)NC(=O)C(C)(C)NC(=O)[C@@H](NC(=O)[C@H](CO)NC(=O)[C@H](Cc1ccc(O)cc1)NC(=O)[C@H](CC(=O)O)NC(=O)[C@H](CO)NC(=O)[C@@H](NC(=O)[C@H](Cc1ccccc1)NC(=O)[C@@H](NC(=O)CNC(=O)[C@H](CCC(=O)O)NC(=O)C(C)(C)NC(=O)[C@@H](N)Cc1ccc(O)cc1)[C@@H](C)O)[C@@H](C)O)[C@@H](C)CC)[C@@H](C)CC)C(C)C)C(=O)N[C@@H](C)C(=O)NCC(=O)NCC(=O)N1CCC[C@H]1C(=O)N[C@@H](CO)C(=O)N[C@@H](CO)C(=O)NCC(=O)N[C@@H](C)C(=O)N1CCC[C@H]1C(=O)N1CCC[C@H]1C(=O)N1CCC[C@H]1C(=O)N[C@@H](CO)C(N)=O` has a total ALT of 24.4 ± 10.9 U/L (patients with type 2 diabetes, serum; 5/5/10/15 mg escalating, baseline).
For `CSCC[C@H](NC(=O)[C@H](CCCNC(=N)N)NC(=O)[C@H](Cc1ccccc1)NC(=O)[C@H](CS)NC(=O)[C@H](C)NC(=O)[C@@H](NC(=O)[C@@H](NC(=O)[C@H](C)NC(=O)[C@H](CCCNC(=N)N)NC(=O)[C@H](CCCNC(=N)N)NC(=O)[C@H](CCCNC(=N)N)NC(=O)[C@H](CCC(N)=O)NC(=O)[C@H](CCCCN)NC(=O)[C@H](CO)NC(=O)[C@H](CC(C)C)NC(=O)[C@H](CC(C)C)NC(=O)[C@H](CCCCN)NC(=O)[C@H](Cc1c[nH]cn1)NC(=O)[C@H](Cc1c[nH]c2ccccc12)NC(=O)[C@@H](NC(=O)[C@H](C)NC(=O)[C@H](CCCCN)NC(=O)[C@H](CCCCN)NC(=O)[C@H](CO)NC(=O)[C@H](CCCCN)NC(C)=O)C(C)C)C(C)C)C(C)C)C(=O)N[C@H](C(=O)N1CCC[C@H]1C(=O)N[C@@H](CC(C)C)C(=O)N[C@@H](Cc1ccc(O)cc1)C(=O)N[C@@H](CC(N)=O)C(N)=O)[C@@H](C)O`, the apparent ΔG1 was -10 ± 0.03 kcal/mol (calmodulin 1-148 sites III and IV; calcium binding, Tyr fluorescence titration; 12 µM, pH 7.4, 22 °C, together with: 6 µM calmodulin).
`O=C(CCn1cc[nH]c(=O)c1=O)N[C@@H]1CCCC12CN(C(=O)c1cccc3c1C(=O)NC3)C2` gave an inhibition of 14% (rep main protease; enzyme activity, inhibitor; 5 µM).
`CC(=O)Cc1cc(=O)c2c(C)cc(O)c([C@@H]3O[C@H](CO)[C@@H](O)[C@H](O)[C@H]3O)c2o1` has an inhibition of 2.15% (rep main protease; reporter gene (Gaussia luciferase), inhibitor; 20 µM).
`CC(C(=O)NC[C@H](NC(=O)c1[nH]nc2nc[nH]c(=O)c12)c1ccc2ccccc2c1)=C1CCC1` gave an inhibition of 15% (rep main protease; enzyme activity; 5 µM).
`COC(=O)C=Cc1ccccc1` has an inhibition of -0.598% (rep main protease; reporter gene (mKate2), inhibitor; 20 µM).
For `Cn1cnc(Cn2c(=O)[nH]/c(=N\c3cc4cn(C)nc4cc3Cl)n(Cc3cc(F)c(F)cc3F)c2=O)n1`, the terminal half-life was 44 h (human, normal renal function; oral, 375 mg, single dose, geometric mean).
With `c1cc(CN2CCCNCCNCCCNCC2)ccc1CN1CCCNCCNCCCNCC1` the inhibition was 0.392% (rep main protease; HEK293T; 20 µM).
With `Cc1cnoc1C(=O)NC[C@@H]1CC2(CCOCC2)CN1C(=O)c1cc(F)cc(C(N)=O)c1` the inhibition was 13.5% (rep main protease; enzyme activity, inhibitor; 5 µM, mean of runs).
`CC[C@H](C)[C@H](NC(=O)[C@H](CC(C)C)NC(=O)[C@H](Cc1c[nH]c2ccccc12)NC(=O)[C@H](CCC(N)=O)NC(=O)[C@@H](NC(=O)[C@H](Cc1ccccc1)NC(=O)[C@H](C)NC(=O)[C@H](CCCCNC(=O)COCCOCCNC(=O)COCCOCCNC(=O)CC[C@H](NC(=O)CCCCCCCCCCCCCCCCCCC(=O)O)C(=O)O)NC(=O)[C@H](CCC(N)=O)NC(=O)[C@H](C)NC(=O)[C@@H](NC(=O)[C@H](CCCCN)NC(=O)[C@H](CC(=O)O)NC(=O)[C@H](CC(C)C)NC(=O)C(C)(C)NC(=O)[C@@H](NC(=O)[C@H](CO)NC(=O)[C@H](Cc1ccc(O)cc1)NC(=O)[C@H](CC(=O)O)NC(=O)[C@H](CO)NC(=O)[C@@H](NC(=O)[C@H](Cc1ccccc1)NC(=O)[C@@H](NC(=O)CNC(=O)[C@H](CCC(=O)O)NC(=O)C(C)(C)NC(=O)[C@@H](N)Cc1ccc(O)cc1)[C@@H](C)O)[C@@H](C)O)[C@@H](C)CC)[C@@H](C)CC)C(C)C)C(=O)N[C@@H](C)C(=O)NCC(=O)NCC(=O)N1CCC[C@H]1C(=O)N[C@@H](CO)C(=O)N[C@@H](CO)C(=O)NCC(=O)N[C@@H](C)C(=O)N1CCC[C@H]1C(=O)N1CCC[C@H]1C(=O)N1CCC[C@H]1C(=O)N[C@@H](CO)C(N)=O` gave a half-life of 121 h (human, normal renal function, plasma; subcutaneous, 5 mg single dose, geometric mean).
`CC(C)(C)[C@H](NC(=O)C(F)(F)F)C(=O)N1C[C@H]2[C@@H]([C@H]1C(=O)N[C@H](C#N)C[C@@H]1CCNC1=O)C2(C)C` gave an AUC(0-t) of 10900 ng·h/mL (human, fasted; oral, 1500 mg single dose, no ritonavir).
The remaining activity of `CCc1c(C(=O)C(N)=O)c2c(OCC(=O)O)cccc2n1Cc1ccccc1` is reported as 99% and 100% (Daboia russelii venom phospholipase A2; enzyme activity, inhibitor; TN population; 0.001 µM, together with: NOB substrate; reference: venom alone).

Excerpt of the above:
For `CSCC[C@H](NC(=O)[C@H](CCCNC(=N)N)NC(=O)[C@H](Cc1ccccc1)NC(=O)[C@H](CS)NC(=O)[C@H](C)NC(=O)[C@@H](NC(=O)[C@@H](NC(=O)[C@H](C)NC(=O)[C@H](CCCNC(=N)N)NC(=O)[C@H](CCCNC(=N)N)NC(=O)[C@H](CCCNC(=N)N)NC(=O)[C@H](CCC(N)=O)NC(=O)[C@H](CCCCN)NC(=O)[C@H](CO)NC(=O)[C@H](CC(C)C)NC(=O)[C@H](CC(C)C)NC(=O)[C@H](CCCCN)NC(=O)[C@H](Cc1c[nH]cn1)NC(=O)[C@H](Cc1c[nH]c2ccccc12)NC(=O)[C@@H](NC(=O)[C@H](C)NC(=O)[C@H](CCCCN)NC(=O)[C@H](CCCCN)NC(=O)[C@H](CO)NC(=O)[C@H](CCCCN)NC(C)=O)C(C)C)C(C)C)C(C)C)C(=O)N[C@H](C(=O)N1CCC[C@H]1C(=O)N[C@@H](CC(C)C)C(=O)N[C@@H](Cc1ccc(O)cc1)C(=O)N[C@@H](CC(N)=O)C(N)=O)[C@@H](C)O`, the apparent ΔG1 was -10 ± 0.03 kcal/mol (calmodulin 1-148 sites III and IV; calcium binding, Tyr fluorescence titration; 12 µM, pH 7.4, 22 °C, together with: 6 µM calmodulin).
`O=C(CCn1cc[nH]c(=O)c1=O)N[C@@H]1CCCC12CN(C(=O)c1cccc3c1C(=O)NC3)C2` gave an inhibition of 14% (rep main protease; enzyme activity, inhibitor; 5 µM).
